Experimental data collected from several papers.
Parts stem from different laboratories: compare values within a part only.

Sample 1
Target: Prothrombin, mature alpha-thrombin (F2, Homo sapiens, UniProt P00734)
Technique: aptamer microarray, sandwich
Molecule type: DNA with 2'F-ANA
Matrix: in vitro
Tested at: 200 nM
Setting: whole 15-mer aptamer, many near background
With: Cy3 exosite-II aptamer, 400 nM
Direction: higher = stronger binding
Oligonucleotide: GGTTGGTGTGGTTGG
Modification | mean fluorescence intensity
2'F-ANA at 2 3 5 9 10 13 14 | 47.9 a.u.
2'F-ANA at 1 2 3 4 8 9 11 15 | 223 a.u.
2'F-ANA at 2 3 4 7 8 9 12 13 14 | 298 a.u.
2'F-ANA at 1 5 6 7 8 10 12 14 15 | 54.9 a.u.
2'F-ANA at 1 4 7 9 11 | 89.8 a.u.
2'F-ANA at 1 2 3 5 6 7 8 9 10 11 12 13 | 68.7 a.u.
2'F-ANA at 1 2 9 11 13 15 | 116 a.u.
2'F-ANA at 2 3 4 7 8 9 10 12 13 15 | 254 a.u.
2'F-ANA at 2 3 5 7 8 11 12 13 | 165 a.u.
2'F-ANA at 1 2 6 9 11 13 14 15 | 54.5 a.u.

Sample 2
Target: Centromere-binding protein 1, full length, N-terminal tag (CBF1, Saccharomyces cerevisiae, UniProt P17106, residues 1-351)
Sequence of UniProt P17106 (whole entry, looked up): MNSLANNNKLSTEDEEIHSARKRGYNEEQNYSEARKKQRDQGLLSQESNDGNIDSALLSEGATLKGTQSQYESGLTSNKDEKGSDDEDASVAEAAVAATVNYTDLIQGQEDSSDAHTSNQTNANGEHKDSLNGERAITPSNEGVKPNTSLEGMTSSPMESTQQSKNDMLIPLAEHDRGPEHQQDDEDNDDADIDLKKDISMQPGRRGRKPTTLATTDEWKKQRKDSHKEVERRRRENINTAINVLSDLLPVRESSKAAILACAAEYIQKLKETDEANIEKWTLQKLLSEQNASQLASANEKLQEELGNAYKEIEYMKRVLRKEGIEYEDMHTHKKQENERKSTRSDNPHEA
Technique: protein-binding microarray
Molecule type: double-stranded DNA, one strand shown
Matrix: in vitro
Tested at: 0.8 µM
Setting: whole 60-bp probe, no competitor
Direction: higher = stronger binding
Shared flanks, not repeated: … GTCTTGATTCGCTTGACGCTGCTG
Oligonucleotide | fluorescence intensity [a.u.]
GAATAATAGAATTTTCTGATGTTTATCTTTTTTTAG | 530
CTAATTTAACACGTGATTAAGTTACTCTAATATTTC | 20600
CTATGTTGGAAATTACAGGAGATGAGTTGTAAATTC | 522
CTATGTAACTATGATCACGGCTGCGTGCCGGGTTTC | 634
GAATTTTAAACCCACGTGTGAACGCCAAGATTGTAG | 3740
CCTAACTACTATAGTGACATAATATAGCTTCGTACA | 514
CCTAACTACTATAGCCACGTTTTATAGCTTCGTACA | 558
CTATCAAACTACCACCACCACGCGGCAGGCCGATTC | 565

Sample 3
Target: RNA binding protein fox-1 homolog 2, RRM domain, GST-SBP tag (RBFOX2, Homo sapiens, UniProt O43251-10, residues 100-194)
Technique: RNA Bind-n-Seq
Molecule type: RNA
Matrix: in vitro
Tested at: 365 nM
Setting: natural RNA segment, single round, ends assumed
Baseline: no-protein control
Direction: higher = stronger binding
Shared flanks, not repeated: GGGAGUUCUACAGUCCGACGAUC … UGGAAUUCUCGGGUGCCAA
Target sequence (chain): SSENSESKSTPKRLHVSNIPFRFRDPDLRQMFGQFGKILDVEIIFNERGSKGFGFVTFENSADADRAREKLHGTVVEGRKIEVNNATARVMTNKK
Oligonucleotide | RBNS enrichment (R)
CUCCCUCCCUCUAGUCUGCAUGUGUGCAAGGAUGUCAGACAGUCUCGACUUAGGAUGGACAGACACAGAGGGGUGCCUUCUAUGGUGCCAGCCUGUCAUGCCCAGUCCCU | 1.69
UGCUCUGCCAGGGCUGUAGCCAGGCAGGGCCCUAAGCCAGGGCUCCUGGACCCAGGCUUUCCCAUACCACGGGCCCAGGACUGUGGCUCCUUUUCUAAACCACCUCUGGG | 0.318
CCCCCAUCCCUCACUUCUGGGCUGUCAUGCUCCUGGUGUGCCCCUUGCACUGGGGCUGGCUGGGUUGGAAAGUGGGCUGGACUUCAGCUGCCUUUCUACCCCCAAUGGCA | 0.563
UGUAGUUGGCACCAUGGUAUCAUAUAUUAAAACAAUAAUGCAAUUAGAAUUUGGGAGAAGCAAAUAUAGGUCCUGUGUUAAACACUACACAUUUGAAACAAGCUAACCCU | 0.4
ACGCUUGUUAAAGGCUAUUUUCUAUAUUUAUUGUUGGGAAAAGUCACUUUAAAGACUUGUGCUAUUUGGAAGCAAAGCUAUUUUUUUUGUCAGUGGAAUGCAGUUUUUUU | 1.62
GAAUGGAGGAGGGAAGUUGAAGGAGCCACCUCCUCUGUCUACCCACCCGUCCCCUUCACGCCCUUGACACUAAGGAGUGGGGGGCCCUGGACUGCCCCUUCCUCCCCCAU | 0.453

Single results of other studies
Substance | target | assay | system | conditions | how to read | quantity | value
PhoQ, residues 284 288 289 292 302 303 SIHLQL | PhoP, residues 12 14 15 18 19 VQGLL (Escherichia coli, UniProt P23836) | Sort-seq, item: YFP reporter | E. coli | PhoQ-PhoP variant library, with: 10 µM Mg2+ | baseline: high Mg2+ state, higher = stronger signaling | fold induction | 19

Some of these lines once more (sample 2):
Oligonucleotide | fluorescence intensity [a.u.]
CTATCAAACTACCACCACCACGCGGCAGGCCGATTC | 565
GAATAATAGAATTTTCTGATGTTTATCTTTTTTTAG | 530
GAATTTTAAACCCACGTGTGAACGCCAAGATTGTAG | 3740
CTAATTTAACACGTGATTAAGTTACTCTAATATTTC | 20600
